Measurements gathered from unrelated publications.
Each line is one published result; not all experiments were run side by side. Numbers after ± are the reported error. ≈ marks a conversion by molar mass, not a printed value.
Chain of UniProt O43525 (whole entry, looked up): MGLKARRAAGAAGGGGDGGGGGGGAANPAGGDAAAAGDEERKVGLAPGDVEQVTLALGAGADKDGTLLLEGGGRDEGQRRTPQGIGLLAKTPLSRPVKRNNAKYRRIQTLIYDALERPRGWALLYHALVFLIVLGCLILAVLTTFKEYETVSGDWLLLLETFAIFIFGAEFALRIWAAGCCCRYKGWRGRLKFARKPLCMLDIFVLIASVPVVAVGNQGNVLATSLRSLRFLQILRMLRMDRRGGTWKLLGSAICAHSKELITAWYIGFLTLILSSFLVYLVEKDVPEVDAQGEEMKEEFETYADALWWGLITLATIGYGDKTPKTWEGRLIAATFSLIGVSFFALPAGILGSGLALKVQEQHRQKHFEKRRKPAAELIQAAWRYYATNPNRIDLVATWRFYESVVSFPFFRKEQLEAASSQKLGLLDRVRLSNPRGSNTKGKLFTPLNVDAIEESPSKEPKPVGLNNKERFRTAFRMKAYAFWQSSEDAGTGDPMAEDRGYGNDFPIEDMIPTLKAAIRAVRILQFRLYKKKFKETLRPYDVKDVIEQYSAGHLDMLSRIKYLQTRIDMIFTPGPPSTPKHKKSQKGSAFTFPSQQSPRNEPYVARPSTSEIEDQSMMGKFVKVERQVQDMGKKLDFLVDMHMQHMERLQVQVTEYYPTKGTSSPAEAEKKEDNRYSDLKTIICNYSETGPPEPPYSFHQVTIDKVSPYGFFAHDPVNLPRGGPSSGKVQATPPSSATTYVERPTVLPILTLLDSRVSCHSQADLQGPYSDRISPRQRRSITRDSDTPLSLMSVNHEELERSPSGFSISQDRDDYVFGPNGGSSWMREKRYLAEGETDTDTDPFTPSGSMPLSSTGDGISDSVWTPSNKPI
Chain of UniProt O43526 (whole entry, looked up): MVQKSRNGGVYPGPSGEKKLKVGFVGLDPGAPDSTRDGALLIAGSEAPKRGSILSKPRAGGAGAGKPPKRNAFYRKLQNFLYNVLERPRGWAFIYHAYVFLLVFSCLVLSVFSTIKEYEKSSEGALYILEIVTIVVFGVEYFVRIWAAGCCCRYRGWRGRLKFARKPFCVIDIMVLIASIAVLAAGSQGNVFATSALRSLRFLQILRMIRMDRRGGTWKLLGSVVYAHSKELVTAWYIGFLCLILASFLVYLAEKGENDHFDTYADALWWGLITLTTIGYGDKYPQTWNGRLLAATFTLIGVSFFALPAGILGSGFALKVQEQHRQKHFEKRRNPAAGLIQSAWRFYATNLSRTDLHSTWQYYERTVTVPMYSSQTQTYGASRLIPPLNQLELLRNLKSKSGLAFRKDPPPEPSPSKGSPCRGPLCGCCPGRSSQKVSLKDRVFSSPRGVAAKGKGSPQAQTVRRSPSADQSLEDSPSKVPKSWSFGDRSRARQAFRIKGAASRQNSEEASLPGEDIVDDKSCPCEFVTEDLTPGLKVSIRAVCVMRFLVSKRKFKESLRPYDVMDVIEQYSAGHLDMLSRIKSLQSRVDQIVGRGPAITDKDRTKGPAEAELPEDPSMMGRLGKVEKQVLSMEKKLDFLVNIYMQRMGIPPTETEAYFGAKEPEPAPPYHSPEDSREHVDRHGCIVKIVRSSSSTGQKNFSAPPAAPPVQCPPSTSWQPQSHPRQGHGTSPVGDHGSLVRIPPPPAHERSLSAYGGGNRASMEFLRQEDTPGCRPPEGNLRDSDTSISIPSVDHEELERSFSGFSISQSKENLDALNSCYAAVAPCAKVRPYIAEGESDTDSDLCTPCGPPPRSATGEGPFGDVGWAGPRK
Chain of UniProt Q62968 (whole entry, looked up): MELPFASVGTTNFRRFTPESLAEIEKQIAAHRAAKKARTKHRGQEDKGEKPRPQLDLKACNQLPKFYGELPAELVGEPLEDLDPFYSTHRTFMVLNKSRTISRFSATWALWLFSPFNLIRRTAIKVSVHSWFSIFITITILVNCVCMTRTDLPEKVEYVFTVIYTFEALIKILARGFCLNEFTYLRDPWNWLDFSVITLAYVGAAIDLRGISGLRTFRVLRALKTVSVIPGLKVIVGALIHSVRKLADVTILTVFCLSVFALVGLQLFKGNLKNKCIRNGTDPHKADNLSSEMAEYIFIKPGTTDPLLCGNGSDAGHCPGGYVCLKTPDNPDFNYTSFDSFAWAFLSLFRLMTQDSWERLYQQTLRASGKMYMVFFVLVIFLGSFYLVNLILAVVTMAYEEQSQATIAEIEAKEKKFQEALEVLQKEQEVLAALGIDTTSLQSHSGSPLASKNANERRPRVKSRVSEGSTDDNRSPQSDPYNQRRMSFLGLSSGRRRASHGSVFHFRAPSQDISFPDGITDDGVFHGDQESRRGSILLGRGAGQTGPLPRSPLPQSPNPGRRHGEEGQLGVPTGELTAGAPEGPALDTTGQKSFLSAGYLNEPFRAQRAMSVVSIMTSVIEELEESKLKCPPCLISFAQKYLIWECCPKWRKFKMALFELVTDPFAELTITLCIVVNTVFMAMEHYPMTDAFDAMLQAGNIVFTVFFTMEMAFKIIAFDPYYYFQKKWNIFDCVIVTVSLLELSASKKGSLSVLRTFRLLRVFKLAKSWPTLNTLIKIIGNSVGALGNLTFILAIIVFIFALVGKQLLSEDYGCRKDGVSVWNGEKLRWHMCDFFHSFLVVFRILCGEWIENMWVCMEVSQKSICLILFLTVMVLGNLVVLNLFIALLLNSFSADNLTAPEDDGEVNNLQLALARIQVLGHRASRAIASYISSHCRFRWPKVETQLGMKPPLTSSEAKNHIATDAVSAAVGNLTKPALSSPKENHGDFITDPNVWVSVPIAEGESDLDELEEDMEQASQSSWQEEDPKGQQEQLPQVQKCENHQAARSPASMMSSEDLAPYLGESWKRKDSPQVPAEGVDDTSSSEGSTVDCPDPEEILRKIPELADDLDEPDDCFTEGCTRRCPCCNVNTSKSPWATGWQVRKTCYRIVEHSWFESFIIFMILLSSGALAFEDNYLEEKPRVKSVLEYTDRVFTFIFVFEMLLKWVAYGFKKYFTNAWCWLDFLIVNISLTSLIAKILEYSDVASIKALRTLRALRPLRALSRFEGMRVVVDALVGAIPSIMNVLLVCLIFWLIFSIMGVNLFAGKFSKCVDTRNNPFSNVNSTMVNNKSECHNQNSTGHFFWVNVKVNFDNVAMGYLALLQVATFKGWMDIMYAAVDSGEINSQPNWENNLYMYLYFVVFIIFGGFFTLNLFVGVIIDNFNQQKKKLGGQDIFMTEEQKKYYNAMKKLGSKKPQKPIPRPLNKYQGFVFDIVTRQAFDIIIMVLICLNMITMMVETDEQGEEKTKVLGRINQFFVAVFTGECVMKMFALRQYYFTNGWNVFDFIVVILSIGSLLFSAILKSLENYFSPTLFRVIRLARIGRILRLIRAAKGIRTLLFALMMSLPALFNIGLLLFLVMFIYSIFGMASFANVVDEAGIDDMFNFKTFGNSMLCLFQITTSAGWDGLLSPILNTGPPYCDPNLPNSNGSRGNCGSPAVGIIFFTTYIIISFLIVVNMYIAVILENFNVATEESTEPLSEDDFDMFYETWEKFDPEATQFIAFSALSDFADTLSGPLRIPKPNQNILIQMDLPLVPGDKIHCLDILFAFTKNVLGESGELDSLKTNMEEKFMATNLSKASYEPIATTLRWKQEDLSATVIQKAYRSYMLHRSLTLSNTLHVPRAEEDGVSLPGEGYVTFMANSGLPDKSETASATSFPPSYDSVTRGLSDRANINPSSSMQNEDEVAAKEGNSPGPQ
Chain of UniProt P31947 (whole entry, looked up): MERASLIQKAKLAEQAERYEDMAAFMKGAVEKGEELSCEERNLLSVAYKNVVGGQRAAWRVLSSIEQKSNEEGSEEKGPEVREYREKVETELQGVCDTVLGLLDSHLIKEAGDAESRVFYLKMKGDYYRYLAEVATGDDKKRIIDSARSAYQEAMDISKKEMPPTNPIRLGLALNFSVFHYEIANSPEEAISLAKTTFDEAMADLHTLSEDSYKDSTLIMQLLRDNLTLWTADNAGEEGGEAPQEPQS
Chain of UniProt Q13451 (whole entry, looked up): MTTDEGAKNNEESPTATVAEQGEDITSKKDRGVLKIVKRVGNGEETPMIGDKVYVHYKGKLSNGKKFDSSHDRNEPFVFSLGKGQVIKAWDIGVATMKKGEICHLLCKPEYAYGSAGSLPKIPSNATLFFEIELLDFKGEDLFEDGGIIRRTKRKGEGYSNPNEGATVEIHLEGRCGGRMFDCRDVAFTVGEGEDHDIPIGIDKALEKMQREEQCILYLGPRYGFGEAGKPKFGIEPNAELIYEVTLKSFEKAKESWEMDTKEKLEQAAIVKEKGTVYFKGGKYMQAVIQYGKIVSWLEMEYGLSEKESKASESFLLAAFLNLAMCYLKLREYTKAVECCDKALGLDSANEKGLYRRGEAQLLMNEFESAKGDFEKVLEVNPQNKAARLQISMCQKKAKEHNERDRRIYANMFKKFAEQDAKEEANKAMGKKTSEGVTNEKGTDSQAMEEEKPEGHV
Chain of UniProt P26718 (whole entry, looked up): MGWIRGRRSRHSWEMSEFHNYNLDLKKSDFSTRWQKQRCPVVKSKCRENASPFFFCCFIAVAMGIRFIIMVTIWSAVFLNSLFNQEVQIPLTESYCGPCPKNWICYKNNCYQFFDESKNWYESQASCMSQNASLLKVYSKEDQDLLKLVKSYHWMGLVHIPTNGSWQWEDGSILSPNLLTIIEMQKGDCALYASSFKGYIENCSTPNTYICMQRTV
Chain of UniProt P61073 (whole entry, looked up): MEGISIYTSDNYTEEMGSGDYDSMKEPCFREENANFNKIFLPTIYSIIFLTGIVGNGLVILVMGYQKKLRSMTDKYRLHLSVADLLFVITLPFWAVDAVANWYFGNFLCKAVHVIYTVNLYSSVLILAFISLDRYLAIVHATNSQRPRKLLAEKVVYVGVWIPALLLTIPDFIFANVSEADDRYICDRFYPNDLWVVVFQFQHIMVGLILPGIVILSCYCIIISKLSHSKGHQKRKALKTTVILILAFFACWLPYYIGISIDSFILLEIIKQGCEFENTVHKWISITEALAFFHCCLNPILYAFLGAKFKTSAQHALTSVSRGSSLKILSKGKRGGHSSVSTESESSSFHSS

Structure (SMILES)	target	test	system	conditions	scale	endpoint	result
CC(C)C[C@@H](N)C(=O)NCC(=O)N[C@H](C)C(=O)N[C@H](CO)C(=O)N[C@H](Cc1c[nH]c2ccccc12)C(=O)N[C@H](Cc1c[nH]cn1)C(=O)N[C@H](CCCNC(=N)N)C(=O)N1CCC[C@@H]1C(=O)N[C@H](CC(=O)O)C(=O)N[C@H](CCCCN)C(=O)N[C@H](CS)C(=O)N[C@H](CS)C(=O)N[C@H](CC(C)C)C(=O)NCC(=O)N[C@H](Cc1ccc(O)cc1)C(=O)N[C@H](CCC(N)=O)C(=O)N[C@H](CCCCN)C(=O)N[C@H](CCCNC(=N)N)C(=O)N1CCC[C@@H]1C(=O)N[C@H](CC(C)C)C(=O)N1CCC[C@@H]1C(=O)NCCCCCC(=O)N[C@@H](CCCCNC(=S)Nc1ccc2c(c1)C(=O)OC21c2ccc(O)cc2Oc2cc(O)ccc21)C(N)=O	C-X-C chemokine receptor type 4 (CXCR4, Homo sapiens, UniProt P61073)	binding	CHO cells expressing CXCR4			saturating concentration	800 nM
COCC1CCC2C1=CC1(C)C(=C(C(C)C)C3CCOC31)C(OC1OC3COC(C)(C)OC3C(O)C1O)C(O)C2C (centres unmarked)	14-3-3 protein sigma, with TASK3 (SFN, Homo sapiens, UniProt P31947)	protein-protein interaction, stabilizer, fluorescence polarization		with: FITC-labelled TASK3 peptide		cooperativity factor	100
O=[N+]([O-])c1ccc(OP(=O)(O)O)cc1	Alkaline phosphatase PafA (pafA, Elizabethkingia meningoseptica, UniProt Q9KJX5, R164A)		Chryseobacterium meningosepticum	pH 8.0	baseline: wild type over mutant kcat/KM	relative catalytic efficiency	12
CCN(Cc1ccccc1)C(=O)CCc1nc(CN2CCN(C(=O)Cc3ccc(OC)c(OC)c3)CC2)no1	Sodium channel protein type 10 subunit alpha (Scn10a, Rattus norvegicus, UniProt Q62968)	whole-cell patch clamp	rat DRG neurons	300 nM		V1/2 of activation	-20 ± 1.84 mV
c1ccc(CCCC2CCC(CCCc3ccccc3)N2)cc1 (centres unmarked)	Synaptic vesicular amine transporter (Slc18a2, Rattus norvegicus, UniProt Q01827)	dopamine uptake	rat striatal synaptic vesicles	with: [3H]dopamine		maximal inhibition	100%
CC[C@H](C)[C@H](NC(=O)CNC(=O)[C@H](CC(=O)O)NC(=O)[C@H](CC(C)C)NC(=O)[C@@H](NC(=O)[C@H](CC(N)=O)NC(=O)[C@H](CCC(N)=O)NC(=O)CNC(=O)[C@H](CC(C)C)NC(=O)[C@H](CCCCN)NC(=O)[C@H](CCC(=O)O)NC(=O)[C@@H](NC(=O)[C@H](CCCCN)NC(=O)[C@H](CCC(=O)O)NC(=O)[C@H](Cc1ccccc1)NC(=O)[C@H](CC(C)C)NC(=O)[C@H](CCCCN)NC(=O)[C@H](Cc1c[nH]c2ccccc12)NC(=O)[C@@H](N)CCC(=O)O)[C@@H](C)CC)[C@@H](C)CC)C(=O)N[C@H](C(=O)N[C@@H](CCCCN)C(=O)N[C@@H](CC(C)C)C(=O)NCC(=O)N1CCC[C@H]1C(=O)N[C@@H](CC(C)C)C(=O)N[C@@H](CC(C)C)C(=O)N[C@@H](C)C(=O)N[C@@H](CC(C)C)C(=O)N[C@@H](CC(C)C)C(=O)NCC(=O)N[C@@H](CCC(N)=O)C(=O)N[C@@H](CC(C)C)C(=O)N[C@H](C(=O)N[C@@H](CCC(N)=O)C(=O)N[C@H](C(=O)N[C@@H](C)C(=O)N[C@@H](CC(C)C)C(N)=O)[C@@H](C)CC)[C@@H](C)O)[C@@H](C)CC	POPC membrane	membrane binding, stopped-flow FRET		mole fraction units, room temperature		binding free energy	-7 kcal/mol
CC[C@H](C)[C@H](NC(=O)[C@H](Cc1c[nH]cn1)NC(=O)[C@H](CCCCNC(=O)[C@@H](NC(=O)[C@H](CCCCN)NC(=O)[C@H](Cc1ccccc1)NC(=O)[C@H](CCCCNC(=O)[C@H](CC(C)C)NC(=O)[C@@H]1CCCN1C(=O)[C@H](CCCCN)NC(=O)c1ccc(O[C@@H]2O[C@H](CO)[C@H](O)[C@H](O)[C@H]2O)cc1)NC(=O)[C@H](CC(C)C)NC(=O)[C@@H]1CCCN1C(=O)[C@H](CCCCN)NC(=O)c1ccc(O[C@@H]2O[C@H](CO)[C@H](O)[C@H](O)[C@H]2O)cc1)[C@@H](C)CC)NC(=O)[C@@H](NC(=O)[C@H](CCCCN)NC(=O)[C@H](Cc1ccccc1)NC(=O)[C@H](CCCCNC(=O)[C@H](CC(C)C)NC(=O)[C@@H]1CCCN1C(=O)[C@H](CCCCN)NC(=O)c1ccc(O[C@@H]2O[C@H](CO)[C@H](O)[C@H](O)[C@H]2O)cc1)NC(=O)[C@H](CC(C)C)NC(=O)[C@@H]1CCCN1C(=O)[C@H](CCCCN)NC(=O)c1ccc(O[C@@H]2O[C@H](CO)[C@H](O)[C@H](O)[C@H]2O)cc1)[C@@H](C)CC)C(N)=O	PA-I galactophilic lectin (lecA, Pseudomonas aeruginosa, UniProt Q05097)	hemagglutination, inhibitor	rabbit erythrocytes	30 min, 4 °C		MIC	0.78 µM (≈ 3.05 µg/mL)
CC[C@H](C)[C@H](NC(=O)[C@H](CCCNC(=N)N)NC(=O)[C@H](CO)NC(=O)[C@@H](NC(=O)[C@H](CC(=O)O)NC(=O)[C@H](CC(=O)O)NC(=O)CCCCCNC(=O)c1ccc2c(c1)C(=O)OC21c2ccc(O)cc2Oc2cc(O)ccc21)[C@@H](C)O)C(=O)N[C@@H](CCC(=O)O)C(=O)N[C@@H](CCC(=O)O)C(=O)N[C@H](C(=O)N[C@@H](CC(=O)O)C(=O)O)C(C)C	Peptidyl-prolyl cis-trans isomerase FKBP5 (FKBP5, Homo sapiens, UniProt Q13451)	binding, fluorescence polarization		pH 7.4, full-length protein	baseline: wild-type Hsp90α tracer	affinity decrease	≥ 12 fold
O=C(Cn1cc(-c2cccc(-c3cn(CC(=O)N[C@H]4CCOC4=O)nn3)c2)nn1)N[C@H]1CCOC1=O	Transcriptional activator protein LasR (lasR, Pseudomonas aeruginosa, UniProt P25084)	reporter gene, agonist	Escherichia coli, DH5α pJN105L/pSC11	100 µM	baseline: OdDHL at same concentration	activation	8%
NS(=O)(=O)c1ccc(NC(=O)c2ccccc2SSc2ccccc2C(=O)Nc2ccc(S(N)(=O)=O)cc2)cc1	Gag-Pol polyprotein, integrase (gag-pol, Human immunodeficiency virus type 1 group M subtype B, UniProt P04585, C1427S)	zinc release, PAR absorbance, refers to: zinc		pH 7.0, compound per IN protomer		stoichiometry	1.97
CN(C)C(=O)C(NC(=O)c1ccccc1-c1ccc(C(F)(F)F)cc1)c1cccc(C(F)(F)F)c1 (centres unmarked)	NKG2-D type II integral membrane protein, with MICA (KLRK1, Homo sapiens, UniProt P26718)	cellular TR-FRET binding		pIC50 minus ChromLogD		LLE	2.2 ± 0.7 , 1.7
CCCCC/C=C\C/C=C\C/C=C\C/C=C\CCCC(=O)NC(CO)C(=O)O (stereo in doubt)	Voltage-gated potassium channel, KQT; KCNQ2(Kv7.2)/KCNQ3(Kv7.3) (KCNQ3/KCNQ2, Homo sapiens, UniProt O43525+O43526)	activator, two-electrode voltage clamp	Xenopus oocytes			maximal increase in GMAX	66%
COC(=O)C1C(OC(c2ccc(Cl)cc2)c2ccc(Cl)cc2)CC2CCC1N2C (single isomer, unassigned)	rat 5-HT1 receptors	binding, radioligand displacement		inactive if below 75% at 10000 nM, with: [3H]5-HT		Ki	inactive
Cc1cc(O)cc(C)c1CC(N)C(=O)NC1CCNc2c(Cc3ccccc3)cccc21 (centres unmarked)	Mu-type opioid receptor (Oprm1, Rattus norvegicus, UniProt P33535)	agonist	C6 cells expressing MOR		baseline: DAMGO at 10 µM	efficacy	37%

A few entries again:
Structure (SMILES)	target	test	system	conditions	scale	endpoint	result
NS(=O)(=O)c1ccc(NC(=O)c2ccccc2SSc2ccccc2C(=O)Nc2ccc(S(N)(=O)=O)cc2)cc1	Gag-Pol polyprotein, integrase (gag-pol, Human immunodeficiency virus type 1 group M subtype B, UniProt P04585, C1427S)	zinc release, PAR absorbance, refers to: zinc		pH 7.0, compound per IN protomer		stoichiometry	1.97
